Results collected from several papers.
Lines come from different studies, so protocols differ. Values joined by “and” are separate records of one study, mostly repeats; a detail may differ. ± gives the spread as reported.

For `Cc1n[nH]c2ccc(-c3cc(OC[C@@H](N)Cc4ccccc4)cnc3-c3ccoc3)cc12`, “log2 fold change” read -1.05 (kinase binding, competitor, MIB/MS competition, refers to: SCH9; Candida albicans cell lysate; 10 µM; reference: DMSO).
`Cn1cc([C@H]2C[C@H]3CSC(N)=N[C@@]3(c3ccc(F)cc3F)CO2)cn1`: “brain Aβ40 level” 1.23 ng/g (refers to: Aβx-40; wild-type mouse, brain; subcutaneous, 50 mg/kg, 9 h).
`COc1cc(Nc2ncc3c(n2)-c2ccc(Cl)cc2C(c2c(F)cccc2OC)=NC3)ccc1C(=O)O` — result for “relative tumour volume T/C”: 2.08 (mouse, NB-1771 neuroblastoma xenograft; oral, 2.6 mg/kg, day 21; reference: vehicle).
With `COc1cc(N2CCC(N3CCN(C)CC3)CC2)ccc1Nc1ncc(Cl)c(Nc2ccccc2P(C)(C)=O)n1` the tumour volume was 37.7 mm3 and 30.3 mm3 and 78 mm3 and 44.8 mm3 and 32.7 mm3 (nude mice, NCI-H3122 xenograft; intraperitoneal, 10 mg/kg every other day, day 1).
With `CC[C@@H]1[C@H](F)C(=O)N[C@@H]1COc1nccc2cc(C(N)=O)c(OC)cc12` the inhibition was 2.6% (ATP-site probe binding, ActivX profiling, refers to: CDK11, CDK8; THP-1 cell lysate; 0.2 mM, Lys2 site).
For `CSCCNc1nc(SCCC(F)(F)F)nc2c1ncn2[C@@H]1O[C@H](COP(=O)(O)OP(=O)(O)C(Cl)(Cl)P(=O)(O)O)[C@@H](O)[C@H]1O`, “patients with IPA above 90%” read 2.5% (light transmittance aggregometry; human patients, platelet-rich plasma; dose not given, 15 min, added: ADP 20 µM; reference: patients).
`C[C@H](Oc1ccc(Br)cc1-c1ccon1)C(=O)O` — result for “peak amplitude change”: 7.5% (muscle velocity recovery cycles; human, tibialis anterior muscle; 1200 mg single dose, 3.5 h post-dose, frequency ramp, first response at 30 Hz; reference: placebo).
For `Cc1ccc([C@@H]2O[C@H](CO)[C@@H](O)[C@H](O)[C@H]2O)cc1Cc1ccc(-c2ccc(F)cc2)s1`, “change, mean 24 h, plasma glucose” read -30 mg/dL (Japanese type 2 diabetes patients; 200 mg, day 1; reference: day 0).
For `NC(=O)c1cnc2[nH]ccc2c1N[C@@H]1[C@@H]2CC3C[C@H]1C[C@@](O)(C3)C2`, the percent change was -0.42% (regulatory T cells, flow cytometry; Caucasian humans, peripheral blood; 20 mg single dose; reference: baseline).
For `CCc1c(C)nc(-c2ccc(Cl)s2)nc1Nc1ccc(CC(=O)O)cc1`, serum ALT read “decreased” (mice, chronic ethanol plus binge; intraperitoneal, 0.3 mg/kg daily, ethanol diet 4 weeks, dosed last two; reference: vehicle).
For `C[C@@H](NC(=O)N1C(=O)[C@H](Cc2ccnc(N)c2)[C@H]1C(=O)O)C1CCCCC1`, “time to maximum PT over baseline” read 28 h (human, plasma; continuous intravenous infusion, 1.5 mg/kg/h, days 1 to 6 of 5-day infusion, median; reference: baseline).
With `C[C@H]1O[C@@H](O[C@H]2CC[C@@]3(C)[C@@H](CC[C@]4(C)[C@@H]3C=C[C@]35OC[C@@]6(CCC(C)(C)C[C@H]63)[C@@H](O)C[C@]54C)[C@]2(C)CO)[C@H](O)[C@@H](O[C@@H]2O[C@H](CO)[C@@H](O)[C@H](O)[C@H]2O)[C@H]1O` the total cholesterol was 1.68 mM and 1.61 mM and 1.48 mM and 1.21 mM and 1.35 mM and 1.46 mM (chronic-plus-binge ethanol mice, plasma; oral, 15 mg/kg/day for 7 d, 168 h).
`CN[C@H](CC(C)C)C(=O)N[C@H]1C(=O)N[C@@H](CC(N)=O)C(=O)N[C@H]2C(=O)N[C@H]3C(=O)N[C@H](C(=O)N[C@H](C(=O)O)c4cc(O)cc(O)c4-c4cc3ccc4O)[C@H](O)c3ccc(c(Cl)c3)Oc3cc2cc(c3O[C@@H]2O[C@H](CO)[C@@H](O)[C@H](O)[C@H]2O[C@H]2C[C@](C)(N)[C@H](O)[C@H](C)O2)Oc2ccc(cc2Cl)[C@H]1O`: “number of species decreased” 53 (microbial abundance; human fecal microbiota ex vivo; 100 µg/mL, 48 h; reference: DMSO).
The maximum reduction of `O[C@H]1CCCN[C@@H]1CCCn1cnc2c(Cl)c(Cl)ccc21` is reported as 19.9% (ELISA, refers to: Pro-C3; healthy human volunteers, serum; intraduodenal, 25 mg twice daily, day 14, multiple ascending dose).
`O=C(O)/C=C/c1nccc2c3ccccc3n(Cc3ccc(C4CC4)cc3)c12`: “decrease in serum uric acid” 69.4% (mouse, acute hyperuricaemia model; oral, 2 mg/kg).
`C[C@@H]1COCCN1c1cc([C@]2(O)C[C@H]3CC[C@@H](C2)O3)c2cnn(-c3cc[nH]n3)c2n1`: “tumour growth inhibition” 46.5 ± 11% (LoVo xenograft mice; 7 mg/kg once daily for 7 days, day 17).
`CC(C)[C@H](C(=O)Nc1ccc(C(=O)NO)cc1)c1ccccc1` — result for “tumour growth rate”: 49.7 %/year (volumetric MRI; human, right IAC schwannoma; dose not given, day 1512).
`COc1ccc(-c2cncc(N[C@@H](C)c3cccc(NC(=O)c4cncc(C)c4)c3)n2)cc1OC`: “delta delta Ct” -0.188 (refers to: rno-miR-874-3p; rat SU5416/hypoxia model, lung; dose not given, unit not given; reference: SU5416/hypoxia vehicle).
`Cn1cc(Nc2nccc(-c3ccc4c(c3)CN(C3COC3)CC[C@H]4NC(=O)c3cn(C(C)(C)C)nn3)n2)cn1`: “pathway activation z-score” 2.71 (refers to: growth hormone signaling; splenic B cells, mice; 30 mg/kg, IgD-activated in vivo; reference: vehicle, direction not given).
For `CCN(Cc1nc2c(N)nc3cc(-c4cc[nH]n4)ccc3c2[nH]1)C(C)=O`, “patients with increased CTLs” read 67% (immunohistochemistry, refers to: CD3+CD8+ granzyme B+ cells; patients with advanced solid tumours, injected tumour lesions; dose not given, monotherapy).
For `CC(C)NCC(O)c1ccc(O)c(O)c1` (stereo not drawn), the sarcomere length was 1.72 µm (ventricular cardiomyocytes, C57BL/6 mouse; dose not given, 0.688 s).
`CN[C@@H](C)C(=O)N[C@H]1CN(S(=O)(=O)c2cccc(S(=O)(=O)N3CC[C@H]4CC[C@@H](C(=O)NC(c5ccccc5)c5ccccc5)N4C(=O)[C@@H](NC(=O)[C@H](C)NC)C3)c2)CC[C@H]2CC[C@@H](C(=O)NC(c3ccccc3)c3ccccc3)N2C1=O` — result for “models with enhanced antitumour effect”: 50% (mouse pancreatic cancer PDX models; dose not given, compound added).
`C[C@H]1C[C@H]2CSC(N)=N[C@@]2(c2nc(NC(=O)c3ccc(OC(F)F)cn3)cs2)CO1`: “percent change from baseline” -41.7% (refers to: Aβx-40; healthy adults, plasma; 5 mg once daily, day 10; reference: placebo).
`COc1ccc(F)cc1C(=O)NCc1ccc(-c2nn([C@@H](C)C(F)(F)F)c(N)c2C(N)=O)cc1` has a tumour regression of -29% (mouse TMD8 BTK C481S xenograft; oral, 10 mg/kg twice daily).
`CC(F)(F)c1cc(F)ccc1-c1sc2cc(O)ccc2c1Oc1ccc(/C=C/C(=O)O)cc1` has a partial response of 1.3% (RECIST v1.1, investigator-assessed; human, ER-positive breast cancer; dose not given, best overall response).
The plasma C4 of `CCCCC1(CCCC)CN(c2ccccc2)c2cc(SC)c(OCC(=O)N[C@@H](C(=O)NCC(=O)O)c3ccccc3)cc2S(=O)(=O)C1` is reported as 55.9 ng/mL (refers to: 7α-hydroxy-4-cholesten-3-one; human, plasma; 10 mg once daily, day 8).
`CC1(C)CCC(CN2CCN(c3ccc(C(=O)NS(=O)(=O)c4ccc(NCC5CCOCC5)c([N+](=O)[O-])c4)c(Oc4cnc5[nH]ccc5c4)c3)CC2)=C(c2ccc(Cl)cc2)C1` gave an EC50 of 56 nM (cell killing; canine blood CD3+ T cells, dog 33; 24 h).
The inhibition of `Oc1ccc(Br)cc1C=NCCN1CCOCC1` is reported as 34.7% (superoxide scavenging; 160 µM).
The reticulocytes of `CC(=O)NCC(=O)NCC(=O)N[C@H](C(=O)N[C@@H](Cc1ccc(O)cc1)C(=O)N[C@@H](CO)C(=O)N[C@H]1CSSC[C@@H](C(=O)N[C@@H](CCCNC(=N)N)C(=O)N2CCC[C@H]2C(=O)N[C@@H](CCC(N)=O)C(=O)N[C@@H](CCCNC(=N)N)C(=O)NCC(=O)NCCC(=O)N[C@@H](CCCCNC(=O)CN(CC(=O)NCCCC[C@H](NC(=O)CCNC(=O)CNC(=O)[C@H](CCCNC(=N)N)NC(=O)[C@H](CCC(N)=O)NC(=O)[C@@H]2CCCN2C(=O)[C@H](CCCNC(=N)N)NC(=O)[C@@H]2CSSC[C@H](NC(=O)[C@H](CO)NC(=O)[C@H](Cc3ccc(O)cc3)NC(=O)[C@@H](NC(=O)CNC(=O)CNC(C)=O)[C@@H](C)O)C(=O)N[C@@H](Cc3c[nH]cn3)C(=O)N[C@@H](Cc3ccccc3)C(=O)NCC(=O)N[C@@H](C)C(=O)N[C@@H](CC(C)C)C(=O)N[C@@H]([C@@H](C)O)C(=O)N[C@@H](Cc3c[nH]c4ccccc34)C(=O)N[C@@H](C(C)C)C(=O)N2)C(N)=O)C(=O)CCN)C(N)=O)NC(=O)[C@H](C(C)C)NC(=O)[C@H](Cc2c[nH]c3ccccc23)NC(=O)[C@H]([C@@H](C)O)NC(=O)[C@H](CC(C)C)NC(=O)[C@H](C)NC(=O)CNC(=O)[C@H](Cc2ccccc2)NC(=O)[C@H](Cc2c[nH]cn2)NC1=O)[C@@H](C)O` is reported as 6.4% (healthy BALB/c mice; subcutaneous, 0.08 mg/kg, 4 d, single dose).
The partial response of `CCN1CCN(Cc2ccc(Nc3ncc(F)c(-c4cc(F)c5nc6n(c5c4)[C@H](C)CCC6)n3)nc2)CC1` is reported as 0% (human advanced solid tumours; 400 mg, phase Ia monotherapy RECIST 1.1).
`COc1ccccc1[C@H](Cn1c(=O)n(C(C)(C)C(=O)O)c(=O)c2c(C)c(-c3ncco3)sc21)OC1CCOCC1` — result for “fractional hepatic DNL”: 17 % new palmitate ([1-13C]acetate infusion, isotopomer analysis; overweight or obese healthy men, plasma VLDL-TG palmitate; oral, 50 mg single dose, 9 h post-dose, added: oral fructose).
`N#Cc1ccc2c(c1)[C@H]1CCCN(C(=O)c3ccc4[nH]cnc4c3)[C@H]1C2` — result for “change in fasting insulin”: -17.2% (human, plasma; 240 mg, day 15, 360 h; reference: placebo and baseline).
`OC(CCN1CCCCC1)(c1ccccc1)C1CC2C=CC1C2` (stereo not drawn) — result for “EEG theta power, O2 Pz”: 8.9 µV² (resting-state EEG; healthy elderly humans; oral, 2 mg, eyes closed, LS mean).
For `CCCOc1ccc(-c2ccc(C#N)cc2)cc1`, “number of downregulated proteins” read 317 (proteomics; rat placenta; 0.01 µg/mL, low dose, fold change ≥1.5; reference: control).
With `O=C(O)CNC(=O)Cc1ccccc1` the sarcomere length was 1.72 µm (ventricular cardiomyocytes, C57BL/6 mouse; dose not given, 0.064 s).
`c1ccc(-c2n[nH]cc2-c2ccnc3ccccc23)nc1` — result for “log2 fold change”: 1.33 (kinase binding, competitor, MIB/MS competition, refers to: PKH3; Candida albicans cell lysate; 100 nM; reference: DMSO).

Excerpt of the above:
`c1ccc(-c2n[nH]cc2-c2ccnc3ccccc23)nc1` — result for “log2 fold change”: 1.33 (kinase binding, competitor, MIB/MS competition, refers to: PKH3; Candida albicans cell lysate; 100 nM; reference: DMSO).
The plasma C4 of `CCCCC1(CCCC)CN(c2ccccc2)c2cc(SC)c(OCC(=O)N[C@@H](C(=O)NCC(=O)O)c3ccccc3)cc2S(=O)(=O)C1` is reported as 55.9 ng/mL (refers to: 7α-hydroxy-4-cholesten-3-one; human, plasma; 10 mg once daily, day 8).
`CC(F)(F)c1cc(F)ccc1-c1sc2cc(O)ccc2c1Oc1ccc(/C=C/C(=O)O)cc1` has a partial response of 1.3% (RECIST v1.1, investigator-assessed; human, ER-positive breast cancer; dose not given, best overall response).
With `O=C(O)CNC(=O)Cc1ccccc1` the sarcomere length was 1.72 µm (ventricular cardiomyocytes, C57BL/6 mouse; dose not given, 0.064 s).
For `CC(C)NCC(O)c1ccc(O)c(O)c1` (stereo not drawn), the sarcomere length was 1.72 µm (ventricular cardiomyocytes, C57BL/6 mouse; dose not given, 0.688 s).
